Measurements gathered from unrelated publications.
Compare with care: the assays were run in different laboratories.
Chymotrypsinogen A: Chymotrypsinogen A (Bos taurus, UniProt P00766)
PPARA ligand-binding domain: Peroxisome proliferator-activated receptor alpha, ligand-binding domain (PPARA, Homo sapiens, UniProt Q07869)
Chain of UniProt Q07869 (whole entry, looked up): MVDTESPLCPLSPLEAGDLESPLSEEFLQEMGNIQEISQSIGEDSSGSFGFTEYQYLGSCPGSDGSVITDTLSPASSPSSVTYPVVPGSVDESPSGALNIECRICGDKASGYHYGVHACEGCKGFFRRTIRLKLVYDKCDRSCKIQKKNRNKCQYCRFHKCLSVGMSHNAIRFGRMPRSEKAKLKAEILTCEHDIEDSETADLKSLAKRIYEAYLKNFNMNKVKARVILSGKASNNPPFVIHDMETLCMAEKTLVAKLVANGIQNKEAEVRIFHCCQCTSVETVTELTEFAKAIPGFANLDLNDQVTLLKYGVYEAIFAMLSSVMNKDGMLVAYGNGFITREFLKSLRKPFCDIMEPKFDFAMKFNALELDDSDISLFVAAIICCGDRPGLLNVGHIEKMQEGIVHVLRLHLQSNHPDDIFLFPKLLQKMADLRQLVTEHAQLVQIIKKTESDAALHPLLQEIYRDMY
GBA2: Beta-glucosidase (GBA2, Homo sapiens, UniProt Q9HCG7)
Chain of UniProt Q9HCG7 (whole entry, looked up): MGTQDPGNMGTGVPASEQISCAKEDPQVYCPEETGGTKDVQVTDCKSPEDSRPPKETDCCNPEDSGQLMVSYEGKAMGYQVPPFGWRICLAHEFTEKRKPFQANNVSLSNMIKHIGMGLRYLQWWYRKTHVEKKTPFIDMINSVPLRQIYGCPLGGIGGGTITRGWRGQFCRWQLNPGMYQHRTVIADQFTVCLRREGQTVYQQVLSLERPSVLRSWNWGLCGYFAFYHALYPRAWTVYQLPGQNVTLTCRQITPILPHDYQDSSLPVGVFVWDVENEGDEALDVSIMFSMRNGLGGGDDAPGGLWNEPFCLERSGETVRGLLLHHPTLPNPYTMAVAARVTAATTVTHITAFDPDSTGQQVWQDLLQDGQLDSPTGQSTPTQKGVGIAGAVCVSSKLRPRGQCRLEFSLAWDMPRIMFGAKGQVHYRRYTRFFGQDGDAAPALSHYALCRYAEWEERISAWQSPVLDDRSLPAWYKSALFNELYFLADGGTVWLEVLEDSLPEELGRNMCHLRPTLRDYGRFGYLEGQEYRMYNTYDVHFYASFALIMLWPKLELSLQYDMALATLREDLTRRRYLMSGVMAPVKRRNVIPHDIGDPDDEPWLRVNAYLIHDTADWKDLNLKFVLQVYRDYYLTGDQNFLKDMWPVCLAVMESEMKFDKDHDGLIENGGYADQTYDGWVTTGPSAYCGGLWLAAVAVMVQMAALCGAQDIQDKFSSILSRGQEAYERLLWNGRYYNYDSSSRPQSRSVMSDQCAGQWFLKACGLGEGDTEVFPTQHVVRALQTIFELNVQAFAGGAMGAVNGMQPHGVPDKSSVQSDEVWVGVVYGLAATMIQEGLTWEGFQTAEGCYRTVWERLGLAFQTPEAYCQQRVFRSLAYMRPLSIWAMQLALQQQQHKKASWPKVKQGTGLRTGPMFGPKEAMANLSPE
Sensor histidine kinase AirS: Sensor histidine kinase AirS (Staphylococcus aureus, UniProt Q2FX96)
CHEK1: Serine/threonine-protein kinase Chk1 (CHEK1, Homo sapiens, UniProt O14757)
Chain of UniProt O14757 (whole entry, looked up): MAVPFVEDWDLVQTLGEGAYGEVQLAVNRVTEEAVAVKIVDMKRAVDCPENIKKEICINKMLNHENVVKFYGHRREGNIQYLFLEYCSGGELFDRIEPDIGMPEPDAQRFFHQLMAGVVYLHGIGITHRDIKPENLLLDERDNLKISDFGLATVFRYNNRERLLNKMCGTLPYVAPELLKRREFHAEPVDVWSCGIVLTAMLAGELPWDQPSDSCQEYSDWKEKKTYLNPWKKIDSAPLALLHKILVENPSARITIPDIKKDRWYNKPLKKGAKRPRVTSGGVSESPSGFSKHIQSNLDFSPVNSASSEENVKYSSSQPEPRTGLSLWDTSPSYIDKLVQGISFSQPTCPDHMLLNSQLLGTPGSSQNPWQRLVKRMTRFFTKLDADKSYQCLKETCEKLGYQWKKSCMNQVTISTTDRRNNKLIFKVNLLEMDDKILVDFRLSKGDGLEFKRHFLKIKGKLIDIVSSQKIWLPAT
Chain of UniProt Q8IXJ6 (whole entry, looked up): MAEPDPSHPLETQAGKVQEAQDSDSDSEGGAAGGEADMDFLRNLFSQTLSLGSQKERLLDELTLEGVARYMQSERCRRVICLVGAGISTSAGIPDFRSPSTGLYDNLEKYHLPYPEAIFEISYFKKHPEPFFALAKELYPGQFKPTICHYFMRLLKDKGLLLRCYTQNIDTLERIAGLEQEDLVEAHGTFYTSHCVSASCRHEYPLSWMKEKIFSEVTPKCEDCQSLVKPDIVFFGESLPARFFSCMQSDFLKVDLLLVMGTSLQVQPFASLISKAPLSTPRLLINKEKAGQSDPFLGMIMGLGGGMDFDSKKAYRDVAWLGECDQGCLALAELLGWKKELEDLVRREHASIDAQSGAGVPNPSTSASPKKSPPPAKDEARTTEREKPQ
Chain of UniProt P10997 (whole entry, looked up): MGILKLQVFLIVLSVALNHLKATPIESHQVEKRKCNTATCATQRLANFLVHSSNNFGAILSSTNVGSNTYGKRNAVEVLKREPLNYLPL
Chain of UniProt P00591 (whole entry, looked up): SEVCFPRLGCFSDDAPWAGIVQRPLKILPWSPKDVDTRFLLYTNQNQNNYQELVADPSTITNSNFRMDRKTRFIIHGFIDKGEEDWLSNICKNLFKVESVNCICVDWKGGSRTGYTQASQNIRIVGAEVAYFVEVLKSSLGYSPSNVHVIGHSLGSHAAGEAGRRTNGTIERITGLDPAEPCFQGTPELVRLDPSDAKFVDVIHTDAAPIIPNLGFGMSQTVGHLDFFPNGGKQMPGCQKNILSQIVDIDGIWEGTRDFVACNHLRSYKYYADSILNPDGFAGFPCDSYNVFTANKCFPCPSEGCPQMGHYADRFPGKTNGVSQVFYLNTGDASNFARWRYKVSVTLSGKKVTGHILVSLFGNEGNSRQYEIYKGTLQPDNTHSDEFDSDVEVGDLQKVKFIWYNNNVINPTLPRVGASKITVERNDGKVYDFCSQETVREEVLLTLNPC
Chain of UniProt Q05397 (whole entry, looked up): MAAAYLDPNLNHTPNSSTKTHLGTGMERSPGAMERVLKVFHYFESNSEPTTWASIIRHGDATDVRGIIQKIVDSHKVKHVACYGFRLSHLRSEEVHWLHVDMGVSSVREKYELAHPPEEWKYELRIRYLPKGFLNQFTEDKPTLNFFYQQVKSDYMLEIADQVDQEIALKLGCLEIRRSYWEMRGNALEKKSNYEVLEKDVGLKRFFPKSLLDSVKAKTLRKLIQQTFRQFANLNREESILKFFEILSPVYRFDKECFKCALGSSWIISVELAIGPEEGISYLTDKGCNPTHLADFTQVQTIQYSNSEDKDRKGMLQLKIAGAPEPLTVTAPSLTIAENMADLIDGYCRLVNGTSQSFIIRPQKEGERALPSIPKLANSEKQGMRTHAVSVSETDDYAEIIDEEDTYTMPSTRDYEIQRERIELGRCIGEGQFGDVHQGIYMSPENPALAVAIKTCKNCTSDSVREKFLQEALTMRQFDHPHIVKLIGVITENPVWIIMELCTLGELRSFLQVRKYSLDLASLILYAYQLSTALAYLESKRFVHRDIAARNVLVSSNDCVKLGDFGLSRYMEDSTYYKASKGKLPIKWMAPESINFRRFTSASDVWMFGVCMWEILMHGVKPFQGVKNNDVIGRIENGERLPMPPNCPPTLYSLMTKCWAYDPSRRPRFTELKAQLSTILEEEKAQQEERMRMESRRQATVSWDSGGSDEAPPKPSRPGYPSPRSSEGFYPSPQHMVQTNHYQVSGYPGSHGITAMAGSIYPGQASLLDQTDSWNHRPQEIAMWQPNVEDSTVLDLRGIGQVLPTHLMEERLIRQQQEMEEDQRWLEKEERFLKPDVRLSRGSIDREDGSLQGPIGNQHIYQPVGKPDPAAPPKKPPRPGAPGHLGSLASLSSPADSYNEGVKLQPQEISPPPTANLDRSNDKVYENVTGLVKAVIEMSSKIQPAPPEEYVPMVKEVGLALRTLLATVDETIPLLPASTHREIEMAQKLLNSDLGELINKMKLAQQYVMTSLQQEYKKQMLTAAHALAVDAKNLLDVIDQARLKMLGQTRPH
Chain of UniProt Q9Y243 (whole entry, looked up): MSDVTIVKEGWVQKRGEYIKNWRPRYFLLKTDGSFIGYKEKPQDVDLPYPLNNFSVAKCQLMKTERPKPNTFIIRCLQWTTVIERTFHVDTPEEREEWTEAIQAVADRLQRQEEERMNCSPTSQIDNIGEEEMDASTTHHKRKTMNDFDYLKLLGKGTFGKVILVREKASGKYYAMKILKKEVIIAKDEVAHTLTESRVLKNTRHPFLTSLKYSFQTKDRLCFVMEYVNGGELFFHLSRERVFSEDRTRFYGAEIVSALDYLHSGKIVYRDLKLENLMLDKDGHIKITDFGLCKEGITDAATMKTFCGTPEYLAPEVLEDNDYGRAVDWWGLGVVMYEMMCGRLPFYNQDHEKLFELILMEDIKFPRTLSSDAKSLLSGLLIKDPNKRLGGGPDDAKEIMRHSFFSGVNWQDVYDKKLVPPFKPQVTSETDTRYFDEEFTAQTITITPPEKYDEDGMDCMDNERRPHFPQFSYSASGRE
Chain of UniProt P07550 (whole entry, unmodified, looked up): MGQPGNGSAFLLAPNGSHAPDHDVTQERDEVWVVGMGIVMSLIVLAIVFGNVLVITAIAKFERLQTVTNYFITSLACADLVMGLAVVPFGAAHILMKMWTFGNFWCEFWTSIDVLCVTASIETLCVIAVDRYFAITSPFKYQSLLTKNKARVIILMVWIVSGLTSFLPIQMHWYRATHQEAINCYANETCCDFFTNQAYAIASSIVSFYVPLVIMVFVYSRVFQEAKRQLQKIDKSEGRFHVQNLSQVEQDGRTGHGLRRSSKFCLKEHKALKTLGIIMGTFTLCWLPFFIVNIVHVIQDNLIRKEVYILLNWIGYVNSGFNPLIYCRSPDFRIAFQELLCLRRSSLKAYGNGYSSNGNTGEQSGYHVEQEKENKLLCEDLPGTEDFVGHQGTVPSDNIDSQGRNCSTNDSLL

Structure (SMILES)	target	assay	system	conditions	IC50
CCn1nc(Cl)c2c1-c1cnc(N)c(c1)O[C@H](C)c1cc(F)ccc1-c1nn(C)cc1C2	Focal adhesion kinase 1 (PTK2, Homo sapiens, UniProt Q05397)	enzyme activity, inhibitor, radiometric			0.021 µM
CC(C)(C)c1ccc(C2CC(=O)N2S(=O)(=O)c2cccc(Cl)c2)cc1 (stereo not drawn)	Chymotrypsinogen A	enzyme activity, inhibitor, fluorescence			3 µM
COc1ccc(CCc2cc(OC)c(O)c(OC)c2)cc1OC	Pancreatic triacylglycerol lipase (PNLIP, Sus scrofa, UniProt P00591)	enzyme activity, inhibitor			173 µM
O=C1/C(=N\c2ccc(Cl)cc2Br)c2ccccc2N1C(=O)c1ccccc1Br	Phosphatidylinositol 4,5-bisphosphate 3-kinase catalytic subunit gamma isoform (PIK3CG, Homo sapiens, UniProt P48736)	enzyme activity, inhibitor, ADP detection			0.00854 µM
O=C(NCc1ccc(OP(=O)(O)O)c(OP(=O)(O)O)c1)OCC1c2ccccc2-c2ccccc21	Signal transducer and activator of transcription 5A, SH2 (Homo sapiens, UniProt P42229)	ligand displacement, FP			22.3 µM
CCCCCCCCCCCCNC(=S)NCCCC[C@H](NC(=O)OCc1ccccc1)C(=O)N[C@@H](Cc1c[nH]c2ccccc12)C(=O)N[C@@H](CC(C)C)C(N)=O	NAD-dependent protein deacetylase sirtuin-2 (SIRT2, Homo sapiens, UniProt Q8IXJ6)	enzyme activity, inhibitor			0.51 µM
Cc1c(Cc2ccc(Cl)c(OC(C)C(=O)O)c2)c2ccc(C(=O)NC(C)c3cccc(C(C)(C)C)c3)cc2n1C (stereo not drawn)	PPARA ligand-binding domain	reporter gene, luciferase reporter	HEK293T, Gal4-PPARα LBD		89.9 µM
CNC(=O)C[C@H](Cc1ccc(C#N)cc1)NC(=O)c1cc(-c2ccc(CN[C@H](C)c3ccc(C)cc3)o2)ccc1Cl	ATPase family AAA domain-containing protein 2, bromodomain (ATAD2, Homo sapiens, UniProt Q6PL18)	binding, inhibitor, AlphaScreen competition		His-tagged protein, together with: peptide, histone H4, tetra-acetylated	> 20 µM
CN(C)c1ccc(/N=N/c2ccc(OCCCCCN)cc2)cc1	Islet amyloid polypeptide (IAPP, Homo sapiens, UniProt P10997)	ThT displacement, ThT fluorescence		pH 7.4, preformed target-ThT complex, together with: 5 µM ThT	0.24 µM
Oc1ccc(C=Cc2cc(O)cc(O)c2)cc1	Polyunsaturated fatty acid 5-lipoxygenase (ALOX5, Homo sapiens, UniProt P09917)	enzyme activity, inhibitor			7.18 µM
CC(C)=CCC/C(C)=C/CC/C(C)=C/CN1C[C@H](O)[C@@H](O)[C@H](O)[C@H]1CO	GBA2	inhibitor, 4MU-β-D-glucopyranoside	HEK293T homogenates overexpressing GBA2		0.025 µM
Cc1ccc(S(=O)(=O)N2CC(NC(=O)c3ccccc3F)C2=O)cc1 (stereo not drawn)	Chymotrypsinogen A	enzyme activity, inhibitor, fluorescence			238 µM
OC[C@@H]1[C@@H](O)[C@H](O)[C@@H](O)CN1CCCCCOCc1ccc(-c2ccccc2)c(C(F)(F)F)c1	GBA2	inhibitor, 4MU-β-D-glucopyranoside	HEK293T homogenates overexpressing GBA2		8e-05 µM
O=C(Nc1ccccc1)c1ccccc1NC(=O)C(C(F)(F)F)C(F)(F)F	Chymotrypsinogen A	enzyme activity, inhibitor, fluorescence			4.4 µM
COc1c(Cl)cccc1Nc1c(-c2ccncc2C#C[C@@]2(C)CCCN2C(=O)/C=C/CN(C)C)[nH]c2c1C(=O)NCC2	Mitogen-activated protein kinase 14 (MAPK14, Homo sapiens, UniProt Q16539)				0.18 µM
Nc1ncc2c(n1)-c1c([nH]c3ccc(C#Cc4ccncc4)cc13)CCC2	Phosphatidylinositol 5-phosphate 4-kinase type-2 gamma (PIP4K2C, Homo sapiens, UniProt Q8TBX8)	target engagement in cells, BRET			7.2 µM
OC[C@@H]1[C@@H](O)[C@H](O)[C@@H](O)CN1CCCC/C=C\C12CC3CC(CC(C3)C1)C2	GBA2	inhibitor, 4MU-β-D-glucopyranoside	HEK293T homogenates overexpressing GBA2		0.005 µM
COc1cc(/C=C/C(=O)Oc2cc(C(F)(F)F)cc(C(F)(F)F)c2)ccc1O	3-oxo-5-alpha-steroid 4-dehydrogenase 1 (SRD5A1, Homo sapiens, UniProt P18405)	enzyme activity in cells, inhibitor			8.05 µM
OC[C@@H]1[C@@H](O)[C@H](O)[C@@H](O)CN1CCCCCOCc1ccccc1-c1ccccc1	GBA2	inhibitor, 4MU-β-D-glucopyranoside	HEK293T homogenates overexpressing GBA2		0.003 µM
O=C(Nc1ccc(F)c(Cl)c1)C(C(F)(F)F)C(F)(F)F	Chymotrypsinogen A	enzyme activity, inhibitor, fluorescence			1.2 µM
N=C(N)SCc1ccccc1CSC(=N)N	Cytochrome P450 2C8 (CYP2C8, Homo sapiens, UniProt P10632)	enzyme activity, inhibitor			> 10 µM
O[C@H]1[C@H](O)[C@@H](O)c2[nH]cnc2[C@@H]1O	GBA2		HEK293 lysate overexpressing enzyme	pH 5.8, together with: 4-MU-β-D-glucopyranoside	> 50 µM
OC[C@@H]1[C@@H](O)[C@H](O)[C@@H](O)CN1CCCC(F)(F)COCc1ccc(-c2ccccc2)cc1	GBA2	inhibitor, 4MU-β-D-glucopyranoside	HEK293T homogenates overexpressing GBA2		0.001 µM
Cc1nn(-c2cccc(N)c2)c(=O)c2cnc(Nc3ccc(N4CCNCC4)cc3)nc12	Tyrosine-protein kinase Fyn (FYN, Homo sapiens, UniProt P06241)	enzyme activity, inhibitor			2.81 µM

Structure (SMILES)	target	assay	system	conditions	IC50
Cc1c(Cc2ccc(OC(C)C(=O)O)cc2)c2ccc(C(=O)NC(C)c3ccc(C(F)(F)F)cc3)cc2n1C (mixture of isomers)	PPARA ligand-binding domain	reporter gene, luciferase reporter	HEK293T, Gal4-PPARα LBD		4.44 µM
O=C1CCN1C(=O)NCc1ccccc1	Chymotrypsinogen A	enzyme activity, inhibitor, fluorescence			12 µM
O=C1NC(=O)C(N2CCc3ccccc32)=C1c1ccc(Cl)cc1	Sensor histidine kinase AirS	autophosphorylation, inhibitor, BODIPY-FL-ATPγS in-gel fluorescence		lower bound of confidence interval	> 929 µM
O=C(Nc1ccc(Cl)cc1)Nc1ccc(C2CC(c3ccc(Cl)cc3)=NN2)cc1 (stereo not drawn)	Advanced glycosylation end product-specific receptor (AGER, Homo sapiens, UniProt Q15109)				72 µM
Cc1c(Cc2cc(Cl)cc(O[C@@H](C)C(=O)O)c2)c2ccc(C(=O)N[C@@H](C)c3ccc(C(C)(C)C)cc3)cc2n1C	PPARA ligand-binding domain	reporter gene, luciferase reporter	HEK293T, Gal4-PPARα LBD		36.2 µM
CCCCOCCCCCN1C[C@H](O)[C@@H](O)[C@H](O)[C@H]1CO	GBA2	inhibitor, 4MU-β-D-glucopyranoside	HEK293T homogenates overexpressing GBA2		0.06 µM
COc1cc(OC)c(NC(=O)Nc2nccnn2)cc1Cl	CHEK1	enzyme activity, inhibitor			> 10 µM
Cc1cccc(C)c1CNc1cc(C(=O)N2CCC2)cn2c(C)c(C)nc12	Potassium-transporting ATPase alpha chain 1 (Sus scrofa, UniProt P19156)	enzyme activity, inhibitor	porcine gastric vesicles	pH 6.5	0.0167 µM
Cc1cc(C)c(S(=O)(=O)N(CC(=O)O)c2ccc(Nc3ccnc(N4CCCC4)n3)cc2)c(C)c1	RAC-gamma serine/threonine-protein kinase (AKT3, Homo sapiens, UniProt Q9Y243)	enzyme activity, inhibitor			> 100 µM
COC(=O)CC(c1cc2ccccc2n(C)c1=O)c1c(O)cc(O)c2c(=O)c(O)c(-c3ccc(O)c(O)c3)oc12 (stereo not drawn)	Beta-1,4-galactosyltransferase 1 (B4GALT1, Homo sapiens, UniProt P15291)	inhibitor, UDP-Glo luminescence		two-point screening estimate	< 10 µM
CCC(Oc1cccc(Cc2c(C)n(C)c3cc(C(=O)NC(C)c4cccc(C(C)(C)C)c4)ccc23)c1)C(=O)O (mixture of isomers)	PPARA ligand-binding domain	reporter gene, luciferase reporter	HEK293T, Gal4-PPARα LBD		48.5 µM
C=CC(=O)Nc1cc(-c2nn(C3CCN(CCNC(=O)[C@H](C)CCC45CC6CC(CC(C6)C4)C5)CC3)c3ncnc(N)c23)ccc1Oc1ccccc1	Receptor tyrosine-protein kinase erbB-3 (ERBB3, Homo sapiens, UniProt P21860)	cell-free assay, TR-FRET			0.049 µM
OC[C@@H]1[C@@H](O)[C@H](O)[C@@H](O)CN1CCCCCCOCC12CC3CC(CC(C3)C1)C2	GBA2	inhibitor, 4MU-β-D-glucopyranoside	HEK293T homogenates overexpressing GBA2		0.002 µM
CN(C1=C(c2ccc(F)cc2)C(=O)NC1=O)c1ccc(F)cc1	Sensor histidine kinase AirS	autophosphorylation, inhibitor, BODIPY-FL-ATPγS in-gel fluorescence		lower bound of confidence interval	> 1250 µM
Cc1c(Cc2cccc(OC(C)C(=O)O)c2Cl)c2ccc(C(=O)NC(C)c3ccc(C(C)(C)C)cc3)cc2n1C (stereo not drawn)	PPARA ligand-binding domain	reporter gene, luciferase reporter	HEK293T, Gal4-PPARα LBD		0.86 µM
C[C@H](OCCCCCN1C[C@H](O)[C@@H](O)[C@H](O)[C@H]1CO)c1ccc(-c2ccccc2)cc1	GBA2	inhibitor, 4MU-β-D-glucopyranoside	HEK293T homogenates overexpressing GBA2		0.003 µM
CC(C)Oc1ccccc1NC(=O)C(C(F)(F)F)C(F)(F)F	Chymotrypsinogen A	enzyme activity, inhibitor, fluorescence			31 µM
Cc1c(Cc2ccc(OC(C)(C)C(=O)O)cc2)c2ccc(C(=O)N[C@@H](C)c3ccc(C(C)(C)C)cc3)cc2n1C	PPARA ligand-binding domain	reporter gene, luciferase reporter	HEK293T, Gal4-PPARα LBD		2.69 µM
C[C@H](c1ccccc1)N1C(=O)C2=Nc3cccc(Cl)c3CN2C1=S	Serine/threonine-protein kinase Nek1 (NEK1, Homo sapiens, UniProt Q96PY6)	enzyme activity, inhibitor			0.307 µM
C/C1=C\CC/C(C)=C/CC(C)(C)/C=C/C1	Transient receptor potential cation channel subfamily V member 1 (TRPV1, Homo sapiens, UniProt Q8NER1, F496Q)	ion current, inhibitor, patch clamp			10.4 µM
Cc1ccc(C2CC(=O)N2S(=O)(=O)c2cccc(Cl)c2)cc1 (stereo not drawn)	Chymotrypsinogen A	enzyme activity, inhibitor, fluorescence			0.17 µM
Fc1ccc(Nc2nc(NC3CCCCC3)c3cc(Br)ccc3n2)cc1F	Beta-2 adrenergic receptor (ADRB2, Homo sapiens, UniProt P07550, G162A)	β-arrestin2 recruitment, antagonist, BRET	HEK293	mutant G162A, together with: isoprenaline 1 µM	0.1 µM
O=C1CC(c2ccccc2)N1S(=O)(=O)c1ccccc1 (stereo not drawn)	Chymotrypsinogen A	enzyme activity, inhibitor, fluorescence			1.5 µM
N#Cc1cnc(NC(=O)Nc2cc(Cl)ccc2N)cn1	CHEK1	enzyme activity, inhibitor			0.535 µM
